{"data": "Measured values collected from several papers", "note": "Every numbered part comes from another study and shows a few of its results, in no order. Changes are numbered by the printed parent chain."}
{"data": "Study 1", "target": "CCNB2, cyclin fold, Cln2 fusion (human)", "method": "yeast growth competition, sequencing", "medium": "yeast", "setting": "weak parent motif", "relative to": "not given", "direction": "higher = stronger binding", "starting sequence": "ORC1 docking peptide (human); PRARKRLELGNLG"}
{"Change": "N11Q", "normalised enrichment score": -0.287}
{"Change": "G10A", "normalised enrichment score": 0.357}
{"Change": "P1Y", "normalised enrichment score": 0.267}
{"Change": "A3R", "normalised enrichment score": 0.284}
{"data": "Study 2", "target": "Prothrombin, mature alpha-thrombin (F2, Homo sapiens, UniProt P00734)", "method": "aptamer microarray, sandwich", "molecule type": "DNA with 2'F-ANA", "medium": "in vitro", "tested at": "200 nM", "setting": "whole 15-mer aptamer, many near background", "together with": "Cy3 exosite-II aptamer, 400 nM", "direction": "higher = stronger binding", "sequence": "GGTTGGTGTGGTTGG"}
{"Modification": "2'F-ANA at 1 2 3 4 6 10 14 15", "mean fluorescence intensity": "49.6 a.u."}
{"Modification": "2'F-ANA at 1 2 3 5 6 7 10 13 14 15", "mean fluorescence intensity": "50 a.u."}
{"Modification": "2'F-ANA at 2 3 4 5 7 9 11 13 14 15", "mean fluorescence intensity": "49.4 a.u."}
{"Modification": "2'F-ANA at 1 4 5 7 10 11 14", "mean fluorescence intensity": "49.1 a.u."}
{"Modification": "2'F-ANA at 1 2 8 10 11 12 13 15", "mean fluorescence intensity": "269 a.u."}
{"Modification": "2'F-ANA at 2 3 4 8 9 11 12 13 14 15", "mean fluorescence intensity": "276 a.u."}
{"Modification": "2'F-ANA at 1 2 4 6 8 13 14 15", "mean fluorescence intensity": "50.6 a.u."}
{"Modification": "2'F-ANA at 1 2 3 4 8 9 11 13 14 15", "mean fluorescence intensity": "60.7 a.u."}
{"data": "Study 3", "target": "RNA binding protein fox-1 homolog 2, RRM domain, GST-SBP tag (RBFOX2, Homo sapiens, UniProt O43251-10, residues 100-194)", "method": "RNA Bind-n-Seq", "molecule type": "RNA", "medium": "in vitro", "tested at": "365 nM", "setting": "natural RNA segment, single round, ends assumed", "relative to": "no-protein control", "direction": "higher = stronger binding", "shared flanks, not repeated": "GGGAGUUCUACAGUCCGACGAUC … UGGAAUUCUCGGGUGCCAA", "Residues (chain)": "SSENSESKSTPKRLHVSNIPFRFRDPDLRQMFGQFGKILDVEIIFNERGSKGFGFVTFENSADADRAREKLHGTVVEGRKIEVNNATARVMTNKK"}
{"Sequence": "UAUAUCAACCUUCGACUUUCUCAGUUCCUGCAUCUGCUCCCAUCUGUUCUUUCUUCCCAUCUAGGGCUAUUGCCCAAGGCCCAGAGAAACCAAUAAACUUGUACACGAGU", "RBNS enrichment (R)": 1.65}
{"Sequence": "CCUCUGCUGCACAUUUUGUUUAAGUGUUAACUGUUUCUGCUAUUAAUGUUGGAAACACAAAUAGUGCAAUUUGUGCAAUUGGAGAAUCUUGCCUUUUUUCUUGUCUCCCU", "RBNS enrichment (R)": 0.428}
{"Sequence": "GGGAAAUAAUGUCCAUGCCAUUGUGUGUGGAAGAUUUACAGCUAAGCUGUAGUUGCAGAGUACAUGUACAGUAAUGAAGUUCACUGUGUUUAUAAACUGAAAAGGUACCG", "RBNS enrichment (R)": 0.255}
{"Sequence": "CCCACGCUGGGGAAAGCGGGAAGCGCUCGCUCCCUUUCCCCCAUUAGUGCUCUCUCUGCCUGGAUCCCGGCAGAAGCUAUGAAAGGGAAUAAAGAGAAAAGAAGUACCCA", "RBNS enrichment (R)": 0.278}
{"Sequence": "GAAUGUCAGGACUUUAUCAGCAGGGGUAAAACUACCACCUGGCCUAGCCUAAGUAGGAAGUGAAAAGAUAAUUCACCAAACAAUGAUUAAUCAGAUAGAAGUUCUAGUCA", "RBNS enrichment (R)": 0.283}
{"Sequence": "UAGUGCUUCCUUAGUUUCCUAGCAACUAGGUGUGCAAAUCAUGUGUUGCAGCUUUACGGUUUUUAAACUAUUUUAGAUAUUCUUAAACUAUGAACCUUCUAAACAGUACC", "RBNS enrichment (R)": 0.56}
{"data": "Further values, each from its own experiment"}
{"Molecule": "PhoQ, residues 284 288 289 292 302 303 GANMMA", "target": "PhoP, residues 12 14 15 18 19 IQFRS (Escherichia coli, UniProt P23836)", "test": "Sort-seq, refers to: YFP reporter", "test system": "E. coli", "setting": "PhoQ-PhoP variant library, together with: 10 µM Mg2+", "how to read": "relative to: high Mg2+ state, higher = stronger signaling", "quantity": "fold induction", "result": 2.68}
{"note": "Repeated from above (study 3):"}
{"Sequence": "CCCACGCUGGGGAAAGCGGGAAGCGCUCGCUCCCUUUCCCCCAUUAGUGCUCUCUCUGCCUGGAUCCCGGCAGAAGCUAUGAAAGGGAAUAAAGAGAAAAGAAGUACCCA", "RBNS enrichment (R)": 0.278}
